Published values gathered from unrelated publications.
Protocols differ between the studies behind these lines. Numbers after ± are the reported error.
UniProt Q5T4S7, sequence (whole entry, looked up): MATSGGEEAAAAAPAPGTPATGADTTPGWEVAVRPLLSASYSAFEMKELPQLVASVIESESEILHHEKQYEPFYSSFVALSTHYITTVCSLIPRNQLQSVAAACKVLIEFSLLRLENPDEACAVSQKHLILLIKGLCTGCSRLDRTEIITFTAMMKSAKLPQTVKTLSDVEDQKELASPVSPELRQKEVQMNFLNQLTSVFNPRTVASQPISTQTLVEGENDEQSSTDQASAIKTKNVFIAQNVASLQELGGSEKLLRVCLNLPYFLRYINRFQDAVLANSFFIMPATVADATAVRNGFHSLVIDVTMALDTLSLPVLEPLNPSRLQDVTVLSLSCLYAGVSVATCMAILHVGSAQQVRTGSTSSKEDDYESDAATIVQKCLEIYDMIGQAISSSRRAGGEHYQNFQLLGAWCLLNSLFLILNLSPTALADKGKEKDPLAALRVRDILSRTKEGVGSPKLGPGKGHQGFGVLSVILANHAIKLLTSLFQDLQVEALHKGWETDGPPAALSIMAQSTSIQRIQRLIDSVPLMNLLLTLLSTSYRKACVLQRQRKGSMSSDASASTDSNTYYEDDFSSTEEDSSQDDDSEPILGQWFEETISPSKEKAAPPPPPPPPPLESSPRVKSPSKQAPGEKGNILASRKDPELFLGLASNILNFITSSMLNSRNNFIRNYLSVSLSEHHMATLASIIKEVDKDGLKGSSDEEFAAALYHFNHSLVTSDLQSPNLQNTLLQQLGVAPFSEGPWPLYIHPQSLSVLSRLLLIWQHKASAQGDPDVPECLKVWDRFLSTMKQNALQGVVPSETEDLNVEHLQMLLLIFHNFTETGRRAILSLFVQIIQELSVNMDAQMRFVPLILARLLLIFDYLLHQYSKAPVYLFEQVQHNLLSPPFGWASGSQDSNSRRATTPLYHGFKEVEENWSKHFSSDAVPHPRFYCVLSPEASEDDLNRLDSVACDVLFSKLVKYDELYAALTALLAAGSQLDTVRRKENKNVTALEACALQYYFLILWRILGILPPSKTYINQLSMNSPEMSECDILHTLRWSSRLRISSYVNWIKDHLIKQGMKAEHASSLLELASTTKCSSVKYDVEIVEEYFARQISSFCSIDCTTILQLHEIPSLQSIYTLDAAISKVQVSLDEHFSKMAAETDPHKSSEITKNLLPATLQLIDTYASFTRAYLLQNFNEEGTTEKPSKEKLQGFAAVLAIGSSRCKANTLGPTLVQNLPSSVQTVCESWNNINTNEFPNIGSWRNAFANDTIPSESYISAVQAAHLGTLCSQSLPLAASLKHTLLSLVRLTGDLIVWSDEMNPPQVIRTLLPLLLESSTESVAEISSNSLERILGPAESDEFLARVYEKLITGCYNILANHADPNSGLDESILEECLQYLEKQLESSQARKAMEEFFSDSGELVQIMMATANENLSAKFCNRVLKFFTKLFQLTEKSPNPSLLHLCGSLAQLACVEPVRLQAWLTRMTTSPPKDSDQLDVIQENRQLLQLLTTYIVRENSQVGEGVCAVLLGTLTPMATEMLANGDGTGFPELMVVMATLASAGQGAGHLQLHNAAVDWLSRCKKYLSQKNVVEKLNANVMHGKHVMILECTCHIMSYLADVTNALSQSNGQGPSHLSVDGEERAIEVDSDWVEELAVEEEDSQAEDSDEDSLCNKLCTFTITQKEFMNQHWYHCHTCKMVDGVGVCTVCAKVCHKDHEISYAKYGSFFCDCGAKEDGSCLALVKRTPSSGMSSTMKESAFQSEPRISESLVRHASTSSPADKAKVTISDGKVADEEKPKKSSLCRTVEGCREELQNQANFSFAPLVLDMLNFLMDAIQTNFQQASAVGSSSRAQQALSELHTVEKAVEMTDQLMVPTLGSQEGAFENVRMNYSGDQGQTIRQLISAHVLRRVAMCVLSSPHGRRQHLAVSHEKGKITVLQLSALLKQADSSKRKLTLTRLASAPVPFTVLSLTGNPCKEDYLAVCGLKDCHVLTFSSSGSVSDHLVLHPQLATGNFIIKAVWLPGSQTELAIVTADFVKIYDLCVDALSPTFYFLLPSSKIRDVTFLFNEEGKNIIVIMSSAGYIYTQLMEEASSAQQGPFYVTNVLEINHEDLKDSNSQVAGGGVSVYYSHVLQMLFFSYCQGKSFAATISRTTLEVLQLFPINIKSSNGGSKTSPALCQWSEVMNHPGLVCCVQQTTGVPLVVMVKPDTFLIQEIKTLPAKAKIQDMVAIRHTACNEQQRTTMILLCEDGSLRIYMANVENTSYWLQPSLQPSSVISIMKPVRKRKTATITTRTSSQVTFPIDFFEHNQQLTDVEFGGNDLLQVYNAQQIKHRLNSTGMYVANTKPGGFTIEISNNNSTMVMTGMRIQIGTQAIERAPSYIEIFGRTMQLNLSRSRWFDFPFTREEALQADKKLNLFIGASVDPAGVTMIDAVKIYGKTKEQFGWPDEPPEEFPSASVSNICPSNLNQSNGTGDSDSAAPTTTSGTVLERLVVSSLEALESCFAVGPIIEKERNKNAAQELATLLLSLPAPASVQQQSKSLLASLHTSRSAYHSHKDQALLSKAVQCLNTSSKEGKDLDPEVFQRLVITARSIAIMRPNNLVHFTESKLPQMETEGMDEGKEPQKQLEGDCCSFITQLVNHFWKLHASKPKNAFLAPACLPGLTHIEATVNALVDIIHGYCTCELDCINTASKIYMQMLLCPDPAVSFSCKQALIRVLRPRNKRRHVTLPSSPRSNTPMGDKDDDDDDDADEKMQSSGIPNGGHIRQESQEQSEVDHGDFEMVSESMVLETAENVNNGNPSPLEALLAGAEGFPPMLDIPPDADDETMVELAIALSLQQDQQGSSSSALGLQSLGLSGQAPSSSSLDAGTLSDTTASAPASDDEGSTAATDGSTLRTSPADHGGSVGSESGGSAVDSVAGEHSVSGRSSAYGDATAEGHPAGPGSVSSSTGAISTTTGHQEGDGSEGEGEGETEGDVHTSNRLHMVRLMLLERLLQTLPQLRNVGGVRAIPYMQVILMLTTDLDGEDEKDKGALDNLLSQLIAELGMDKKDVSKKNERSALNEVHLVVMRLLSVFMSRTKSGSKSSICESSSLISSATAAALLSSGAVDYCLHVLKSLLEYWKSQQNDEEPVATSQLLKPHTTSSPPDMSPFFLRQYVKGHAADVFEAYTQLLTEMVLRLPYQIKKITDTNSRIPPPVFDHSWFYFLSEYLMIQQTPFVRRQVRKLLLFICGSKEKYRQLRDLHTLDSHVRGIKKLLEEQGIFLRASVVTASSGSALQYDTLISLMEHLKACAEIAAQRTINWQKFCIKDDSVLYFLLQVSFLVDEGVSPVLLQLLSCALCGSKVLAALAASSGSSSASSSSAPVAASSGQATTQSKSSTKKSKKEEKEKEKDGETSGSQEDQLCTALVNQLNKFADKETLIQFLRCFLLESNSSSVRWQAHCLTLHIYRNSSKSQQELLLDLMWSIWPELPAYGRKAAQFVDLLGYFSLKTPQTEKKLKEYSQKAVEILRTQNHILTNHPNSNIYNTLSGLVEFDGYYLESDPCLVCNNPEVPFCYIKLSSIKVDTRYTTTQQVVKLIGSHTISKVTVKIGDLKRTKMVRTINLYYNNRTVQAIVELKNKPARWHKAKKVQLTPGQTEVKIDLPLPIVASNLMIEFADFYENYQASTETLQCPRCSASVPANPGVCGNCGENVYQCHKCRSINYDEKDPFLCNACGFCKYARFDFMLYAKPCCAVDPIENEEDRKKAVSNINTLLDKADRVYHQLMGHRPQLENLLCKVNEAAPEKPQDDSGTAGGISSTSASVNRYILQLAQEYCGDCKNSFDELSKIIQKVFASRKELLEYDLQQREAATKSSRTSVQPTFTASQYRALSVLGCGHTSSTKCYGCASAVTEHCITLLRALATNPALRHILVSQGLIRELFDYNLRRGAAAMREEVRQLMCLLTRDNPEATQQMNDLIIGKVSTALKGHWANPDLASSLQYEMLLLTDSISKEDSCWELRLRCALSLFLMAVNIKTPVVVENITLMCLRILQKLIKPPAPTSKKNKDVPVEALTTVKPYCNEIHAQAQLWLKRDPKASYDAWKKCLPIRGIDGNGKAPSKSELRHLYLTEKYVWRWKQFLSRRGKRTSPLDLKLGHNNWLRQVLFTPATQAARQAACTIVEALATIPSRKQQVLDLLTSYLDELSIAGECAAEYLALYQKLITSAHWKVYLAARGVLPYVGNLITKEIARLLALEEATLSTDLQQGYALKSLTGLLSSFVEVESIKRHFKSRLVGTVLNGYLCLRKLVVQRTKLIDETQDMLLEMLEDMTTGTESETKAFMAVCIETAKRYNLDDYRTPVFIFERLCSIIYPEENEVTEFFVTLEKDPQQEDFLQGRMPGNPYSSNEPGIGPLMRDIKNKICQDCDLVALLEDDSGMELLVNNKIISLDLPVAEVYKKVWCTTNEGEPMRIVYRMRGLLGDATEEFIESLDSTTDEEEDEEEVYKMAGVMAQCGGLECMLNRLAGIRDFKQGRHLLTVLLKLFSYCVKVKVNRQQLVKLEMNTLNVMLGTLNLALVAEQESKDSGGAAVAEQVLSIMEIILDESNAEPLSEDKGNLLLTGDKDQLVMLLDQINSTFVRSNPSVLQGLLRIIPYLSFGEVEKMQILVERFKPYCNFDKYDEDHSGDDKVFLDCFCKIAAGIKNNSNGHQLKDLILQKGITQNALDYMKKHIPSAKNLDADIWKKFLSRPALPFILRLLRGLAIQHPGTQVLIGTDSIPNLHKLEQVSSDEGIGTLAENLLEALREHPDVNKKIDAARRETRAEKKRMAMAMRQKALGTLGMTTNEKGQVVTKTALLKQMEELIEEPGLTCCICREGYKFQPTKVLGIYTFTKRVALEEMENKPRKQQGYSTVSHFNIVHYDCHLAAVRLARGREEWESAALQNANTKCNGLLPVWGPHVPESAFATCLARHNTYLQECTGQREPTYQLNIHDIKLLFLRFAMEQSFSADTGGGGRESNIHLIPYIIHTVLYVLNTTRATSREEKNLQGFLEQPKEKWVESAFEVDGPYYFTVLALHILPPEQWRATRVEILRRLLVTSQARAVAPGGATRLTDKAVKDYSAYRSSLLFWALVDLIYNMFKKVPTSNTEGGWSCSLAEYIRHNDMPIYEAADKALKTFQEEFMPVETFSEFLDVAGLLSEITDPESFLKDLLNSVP

`COc1cc2c(Oc3ccc4[nH]c(C)cc4c3F)ccnc2cc1OCC1(N)CC1` gave a Thrombocytopenia incidence of 0% (paediatric recurrent refractory sarcoma; 8 mg).
`Cc1c(Cl)c(=O)oc2cc(OCCCC[Se]C#N)ccc12` has a GI50 of 11000 ± 2000 nM (WiDr, multidrug-resistant; sulforhodamine B).
For `CN1CCN(C2(CNC3CCN(c4cccc(-c5cc6cc(F)ccc6[nH]5)c4)CC3)CCC2)CC1`, the GI50 was 1680 nM (NCI/ADR-RES).
With `COc1cc(CCC[P+](c2ccccc2)(c2ccccc2)c2ccccc2)c(OC)c2c1OCO2.[I-]` the GI50 was -5.39 log M (TK-10; SRB).
With `COc1cc(Nc2ncc(F)c(Nc3ccc4c(n3)NC(=O)C(C)(C)O4)n2)cc(OC)c1OC` the IC50 was over 10000 nM (Aldo-keto reductase family 1 member B1 (AKR1B1, Homo sapiens, UniProt P15121)).
The GI50 of `Nc1ncc(-c2nc(N3CCOCC3)nc(N3CCOCC3)n2)c(C(F)F)n1` is reported as 194 nM (U-87 MG; cell growth; 72 h).
The GI50 of `N#C[Se]Cc1cc(=O)oc2cc(O)ccc12` is reported as 31000 ± 7000 nM (WiDr, multidrug-resistant; sulforhodamine B).
`COc1c(CCC[P+](c2ccccc2)(c2ccccc2)c2ccccc2)cc2c(c1OC)OCO2.[I-]` has a GI50 of -6.38 log M (T47D; SRB).
`CC[C@H](C)[C@@H]1NC(=O)[C@@H]2CCCN2C(=O)[C@H](CC(C)C)NC(=O)[C@H](CC(C)C)NC(=O)CNC(=O)[C@@H](NC(=O)[C@@H](NC(=O)[C@H](CC(=O)O)NC(=O)CNC(=O)[C@@H](NC(=O)[C@H](C)NC(=O)CNC(=O)[C@H](CCCCN)NC(=O)[C@H](CC(C)C)NC(=O)[C@H](CC(C)C)NC(=O)[C@H](CCCCN)NC(=O)CNC(=O)[C@@H](NC(=O)[C@@H](N)CC(C)C)C(C)C)C(C)C)C(C)C)CSSC[C@@H](C(=O)O)NC1=O` — result for “log2 fold change”: -1.37 (RNA-seq, item: Pla1a; mouse, traumatic brain injury model, frontal cortex and hippocampus; dose not given; baseline: TBI alone).
`C[C@]12CC[C@H](O)CC1=CC[C@@H]1[C@@H]2CC[C@]2(C)C(n3cnc4ccccc43)=CC[C@@H]12` gave a GI50 of 560 ± 170 nM (CWR22Rv1; cell growth, MTT).
`CC(C)N1CCC(NC2CCN(c3cccc(-c4cc5cc(F)ccc5[nH]4)c3)CC2)CC1` has a GI50 of 397 nM (SW-620).
The GI50 of `C[C@]12CC[C@H](n3ccnc3)CC1=CC[C@@H]1[C@@H]2CC[C@]2(C)C(n3cnc4ccccc43)=CC[C@@H]12` is reported as 310 ± 160 nM (CWR22Rv1; cell growth, MTT).
`C[C@H]1CN(c2n[nH]c3nc(N[C@H]4CC[C@H](NS(=O)(=O)CCC(F)(F)F)CC4)ncc23)CCO1` gave a relative abundance of 1.13 (E3 ubiquitin-protein ligase UBR4 (UBR4, Homo sapiens, UniProt Q5T4S7); inhibitor, Kinobeads competition profiling; 0.16 µM; baseline: vehicle).

For quick reference, copied from above:
The GI50 of `C[C@]12CC[C@H](n3ccnc3)CC1=CC[C@@H]1[C@@H]2CC[C@]2(C)C(n3cnc4ccccc43)=CC[C@@H]12` is reported as 310 ± 160 nM (CWR22Rv1; cell growth, MTT).
